Experimental data from different studies.
Parts stem from different laboratories: compare values within a part only.

Block 1
Target: RNA binding protein fox-1 homolog 2, RRM domain, GST-SBP tag (RBFOX2, Homo sapiens, UniProt O43251-10, residues 100-194)
Technique: RNA Bind-n-Seq
Form: RNA
Sample: in vitro
Tested at: 365 nM
Notes: natural RNA segment, single round, ends assumed
Relative to: no-protein control
Direction: higher = stronger binding
Residues (chain): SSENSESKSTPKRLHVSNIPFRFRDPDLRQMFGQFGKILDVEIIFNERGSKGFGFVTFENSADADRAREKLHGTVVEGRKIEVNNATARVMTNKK
For `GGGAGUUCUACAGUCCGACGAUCGCUCUUCCCACUCCUUCAAGUUGCCCUCACAAACCAAUGUGGCAAGACUACUGGACUUGUAUCCAUGGUACUAUACUCAGUCCUCUUAUCUCAGCUUGCUGAGGGGCAGGUGGAAUUCUCGGGUGCCAA`, “RBNS enrichment (R)” read 0.238.
For `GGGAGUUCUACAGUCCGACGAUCUAGGACUGUACUUUUGUAGAGUUUAGACAGAGCAUCAAUCCCUUCUCCCCGCGAGUGCAGUCGGAUGCCGUUGUCCCCAAGGGCCAGGCCGAACUCGCCCCACACCUGCGUGGAAUUCUCGGGUGCCAA`, “RBNS enrichment (R)” read 0.516.
`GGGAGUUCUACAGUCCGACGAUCGGGCCCCCCAGGUGCUAAUGGCGAACAGUGUCUGAUCAUUGAAACACAGCACAGUUUCCUCCCUGAGCCCCAGCCGUGGGGAACAUCUGGAGUCAACAGAGUCACUGGGAUGGAAUUCUCGGGUGCCAA`: “RBNS enrichment (R)” 0.193.
`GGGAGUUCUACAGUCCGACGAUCUCCUGGCAUGGAUGUUCUGUCCACACUUGAGGCUGGGCGGUGUAUCAGACCCUUCAAGCAGCCUGGCUGGGGCCCAGGACUGAGUCUGGGGUCAGCUUUCACGGUCGCUUUGGAAUUCUCGGGUGCCAA` — result for “RBNS enrichment (R)”: 1.06.
For `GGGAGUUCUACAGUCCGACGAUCAGUCUGCCGCUAAUUAAUCUUAUUUAUUGCAGCUUAUAAAUUGUGCAAUCUCUAUUUCAUUAUCCUGUAAGGAAUAAAUAAGACAUUCAAUAUUGACCUAACUAACUUGAUGGAAUUCUCGGGUGCCAA`, “RBNS enrichment (R)” read 0.331.
For `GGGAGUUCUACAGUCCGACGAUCAAAGUCAAGCAUCACUUAAGACAUGCCCAGGGCUCCAGCUUGCCCUCAGCAGUCCUUCAGGACUUCUGGUUCCUUCCGCCACCCUUCUCAAGAUUCUAGAAAUCAAAGGAUGGAAUUCUCGGGUGCCAA`, “RBNS enrichment (R)” read 0.449.
For `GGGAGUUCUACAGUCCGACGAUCUCUUAUUUUGGAUUAAAAGAAGUUUUCCAUUUGAUACCUCUCUAAAUUAAAUAAAUUAUAGAAUGUAGUUGGGUGGAUUUUGGGGUGGCCAUAUAGUAAUGGAAAGCUGCUGGAAUUCUCGGGUGCCAA`, “RBNS enrichment (R)” read 0.59.
For `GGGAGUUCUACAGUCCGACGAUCAUCUUUAUAAAUGAUCUUGGGUAAAUUACUGGUGAUUGUGAGGGUUGUUUCCCAAUCAAAGGUUAUUUCUAGAUGGCUAUAUGCUUUGUUGCAAUUUCUGCUUCCACCUAUGGAAUUCUCGGGUGCCAA`, “RBNS enrichment (R)” read 0.823.
For `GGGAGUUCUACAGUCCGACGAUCGCUGCUUGUAUGUUUACAUGAAAUUCUCCCAGGACAGACCACCAACCAUGGACACAGAGACCUUAGGGGCUGGGCUUCUCUCCGCACAUGGAGAACAGGAGCCGGGCCCUUGGAAUUCUCGGGUGCCAA`, “RBNS enrichment (R)” read 0.431.

Block 2
Target: Centromere-binding protein 1, full length, His-tagged (CBF1, Saccharomyces cerevisiae, UniProt P17106, residues 1-351)
Sequence of UniProt P17106 (whole entry, looked up): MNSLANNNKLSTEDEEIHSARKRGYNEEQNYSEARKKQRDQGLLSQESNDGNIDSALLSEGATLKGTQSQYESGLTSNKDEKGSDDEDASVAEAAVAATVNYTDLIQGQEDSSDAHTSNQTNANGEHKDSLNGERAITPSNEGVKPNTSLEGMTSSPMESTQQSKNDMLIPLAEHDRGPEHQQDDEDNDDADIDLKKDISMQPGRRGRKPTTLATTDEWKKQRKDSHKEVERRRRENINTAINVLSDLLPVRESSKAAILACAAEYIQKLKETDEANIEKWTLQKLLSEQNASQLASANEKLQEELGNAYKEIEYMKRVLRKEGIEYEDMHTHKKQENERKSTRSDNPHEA
Technique: competition protein-binding microarray
Form: double-stranded DNA, one strand shown
Sample: in vitro
Tested at: 2 µM
Notes: whole 60-bp probe, lowest competitor level
Together with: Pho4 competitor, 0.05 µM
Direction: higher = stronger binding
The fluorescence intensity of `ACCTAACCGGTGTCCCACGTGTTTCACGAAGGGCGCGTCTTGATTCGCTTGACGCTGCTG` is reported as 662 a.u.
With `CGTCCTAGTGATTTTCACGTGGGGTCCATGAGGAAGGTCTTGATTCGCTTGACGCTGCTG` the fluorescence intensity was 686 a.u.
With `TGCGCAACAACTTGGCACGTGGGTGTATGTCTAGAAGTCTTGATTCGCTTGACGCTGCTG` the fluorescence intensity was 1210 a.u.
`GTCTTGTCTCATTGTGTCGTGGGTGTCCCCACTTCAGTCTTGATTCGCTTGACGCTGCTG` has a fluorescence intensity of 85.2 a.u.
The fluorescence intensity of `ACTATAAAGAACTGTCACATGACGATACATCCAAGCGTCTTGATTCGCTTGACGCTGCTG` is reported as 2150 a.u.
`ACACTTTGGTTCTTCGACATGATAAAGTAAAACAACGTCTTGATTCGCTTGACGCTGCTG` gave a fluorescence intensity of 80.3 a.u.
For `CTAACGAAGGTTTGTTTTGTGGGTGACAAGCCAAGTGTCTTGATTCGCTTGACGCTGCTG`, the fluorescence intensity was 73.6 a.u.
The fluorescence intensity of `AACACACAGGGAAAGCACGATAAAAGGATACATAAGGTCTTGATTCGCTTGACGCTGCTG` is reported as 85.7 a.u.
For `AAACTGTGTATGTTACACGTGAAGCGAGGCTTGGAAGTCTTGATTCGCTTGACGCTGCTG`, the fluorescence intensity was 687 a.u.
`CGGGGTTAAGTTTGGGCTGTGGGTGGCTTGCAGCAGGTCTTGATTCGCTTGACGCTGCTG` gave a fluorescence intensity of 51.7 a.u.
With `GCGTTTGCATAATCGCACGTCTTTCCATCGAATTAAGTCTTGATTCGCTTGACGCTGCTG` the fluorescence intensity was 97.1 a.u.
`GTTCCATTCACCGTTGTAATGTGCAGCCCCGTCCTAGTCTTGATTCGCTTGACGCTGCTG` has a fluorescence intensity of 64.8 a.u.
For `CACCTCCCGGTATTCAAGATGATGACAGTGAAGAGAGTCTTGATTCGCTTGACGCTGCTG`, the fluorescence intensity was 69.9 a.u.
With `CTTTCCCGATCTTCGCACGTGTTTTTAGCACATTTGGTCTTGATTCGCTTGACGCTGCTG` the fluorescence intensity was 1210 a.u.
With `GGATAATTTTCAGGACACGTGTTTCGAAAGGTTTGTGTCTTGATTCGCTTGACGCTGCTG` the fluorescence intensity was 2180 a.u.
`CTTTCCCGATCTTGCCGCGTGGGTGTAGCACATTTGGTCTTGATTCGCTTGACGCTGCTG` gave a fluorescence intensity of 84.1 a.u.
The fluorescence intensity of `GTCTTGTCTCATTGCTACGTGGGTGTCCCCACTTCAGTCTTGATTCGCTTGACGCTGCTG` is reported as 90.5 a.u.

Block 3
Target: RING finger protein unkempt homolog, zinc fingers 1-6, SBP tag (UNK, Homo sapiens, UniProt Q9C0B0, residues 30-357)
Sequence of UniProt Q9C0B0 (30-357, looked up): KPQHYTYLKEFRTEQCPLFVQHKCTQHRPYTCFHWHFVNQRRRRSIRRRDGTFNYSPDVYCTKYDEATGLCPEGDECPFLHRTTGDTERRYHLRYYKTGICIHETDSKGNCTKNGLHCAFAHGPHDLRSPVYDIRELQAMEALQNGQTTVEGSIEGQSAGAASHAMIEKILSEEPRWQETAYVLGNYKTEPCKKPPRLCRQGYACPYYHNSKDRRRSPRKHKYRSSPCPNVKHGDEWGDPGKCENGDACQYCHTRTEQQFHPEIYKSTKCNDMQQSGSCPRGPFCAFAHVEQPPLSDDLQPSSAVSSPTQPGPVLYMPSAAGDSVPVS
Technique: RNA Bind-n-Seq
Form: RNA
Sample: in vitro
Tested at: 100 nM
Notes: RNA with constant flanks, vertebrate orthologous sites, ends assumed
Relative to: input RNA pool
Direction: higher = stronger binding
The bound/input enrichment of `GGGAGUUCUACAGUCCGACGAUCUUAUACUGGCCAAACAUUUUUGACUUAGGACUUAUUUUGACCUUUUUUUUUUUUUUUGGUGGUUCUCGUUACCCGCCCCAUGUAUUUGUUUCCUUCACUGAAGGGCUAGAGUUUUAACUUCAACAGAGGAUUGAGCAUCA` is reported as 1.26 ratio.
The bound/input enrichment of `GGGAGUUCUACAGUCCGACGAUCCCCAAGCACUGUAGAGGAAGCUGUGCUCGCCUUAGAGCAUUUUUUUCUUGUUUUUGGUUUUAGGGGUGGGUGGGUUGUUGCACACACCUCUGAGGCCAGAGCUGUCGGGUUCACCUUGUACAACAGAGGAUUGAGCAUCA` is reported as 0.386 ratio.
`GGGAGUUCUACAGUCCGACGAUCCUGCCCGUUUACCCCGUAAAAUAGGACUUUUUUAGAAUCCCAUCGCCACUUCUAAAAUCCUAGUAACACAUCAGCGAGAUAACUUUUAUUCGUUAUUUUACAAACCAAAUCGGUUUACUCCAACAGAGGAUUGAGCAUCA` gave a bound/input enrichment of 1.14 ratio.
For `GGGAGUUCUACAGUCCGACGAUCCGUAGAAUAUUGGGUGCAGCAUAUAAAUUAUCCAAGGCAGUGACUUCAGCUUUAUAGAGAUUGUUAGUUUUAAAGUCACCUACUUUUAUUUCAACUUCUAGAUUGGAUUGUUUGCUAUUGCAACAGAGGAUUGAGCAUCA`, the bound/input enrichment was 1.2 ratio.
`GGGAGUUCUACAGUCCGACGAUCGCAAUGAAAAAGCAGCCCUUCUCCCAGCCCCCUUUGCACUAGGAGAUACAAACGUUACCAUAGAAGAGCAAUUAAACUCAAUAAAUUUAUCUUUUCAGGAUGAUCCAGACUCCAGUACCACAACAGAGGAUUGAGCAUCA` has a bound/input enrichment of 0.989 ratio.
`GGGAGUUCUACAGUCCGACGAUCCCAGAAUUUUAACCAAGAAUCUGAAGGUAGAAAUACAGGACCAUGGUUAUCUUCUUCACUUAGAAAUAGAUGCACACCUUUGUUCUCUAGAAGGAGACGAGAGGGACGAGAUGAAUCUUCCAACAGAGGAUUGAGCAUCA` has a bound/input enrichment of 0.652 ratio.
For `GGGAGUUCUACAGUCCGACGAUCAAUAUUGGAUGCAGUGUAAAAUUAUCCAAGGCAGUGACUUCAGCUUUAUAUAUAUAAAAUAUAGUUUUAAAGUUAUUGACAUUUAUUUAAACUUUUAGAUUGGAUUGUUUGCUAUUGCUCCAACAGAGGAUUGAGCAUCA`, the bound/input enrichment was 0.667 ratio.
With `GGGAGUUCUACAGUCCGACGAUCAAAACUCAGGUUUUAUUUAUUUUGAAAUUAAGCCAACUAUAAAUCUAAUUUAUUACUAAAUAUAAUCUUAAAAGAUUUUUAUGGCUGAACUCUUGAUAGGGACUUCAUACUCCUUACCUUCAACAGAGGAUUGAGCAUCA` the bound/input enrichment was 0.0778 ratio.

Block 4
Target: Hepatocyte nuclear factor 3-alpha (Foxa1, Mus musculus, UniProt P35582, residues 1-468, full length assumed)
Sequence of UniProt P35582 (whole entry, looked up): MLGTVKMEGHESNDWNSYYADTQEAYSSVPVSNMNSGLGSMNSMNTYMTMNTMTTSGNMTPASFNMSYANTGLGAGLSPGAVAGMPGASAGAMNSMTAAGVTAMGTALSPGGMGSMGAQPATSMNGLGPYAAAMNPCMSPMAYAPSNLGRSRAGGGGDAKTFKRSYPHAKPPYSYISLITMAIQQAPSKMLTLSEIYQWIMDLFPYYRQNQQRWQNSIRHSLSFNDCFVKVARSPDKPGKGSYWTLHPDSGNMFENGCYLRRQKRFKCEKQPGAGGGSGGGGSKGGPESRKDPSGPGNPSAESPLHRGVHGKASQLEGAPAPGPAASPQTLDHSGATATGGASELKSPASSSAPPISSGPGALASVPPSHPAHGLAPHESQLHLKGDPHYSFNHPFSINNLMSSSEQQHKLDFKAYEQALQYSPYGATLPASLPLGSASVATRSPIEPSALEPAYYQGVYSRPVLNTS
Technique: EMSA with sequencing
Form: double-stranded DNA, one strand shown
Sample: in vitro
Tested at: 10 and 20 nM
Notes: whole designed probe, mean of two concentrations, ends assumed
Relative to: negative control set to 0
Direction: higher = stronger binding
For `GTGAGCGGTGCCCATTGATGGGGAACACTCAAATTCTATTTTGACTGTTGAGAATCAAATACATCTTTAATGGGTTAATGTTGGCAATAATCGAAAGTGTTTTAGCTAACATTCATGTGTAATCTAGGACAAACATTGGCAAATGTGATAATTACTACATAAGTTGTAAATTCATATGGAAAATGCATTTACTAATTCAGTCAGGGATAGGCTGTGATGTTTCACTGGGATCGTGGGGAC`, “normalised bound fraction” read 0.0938 ratio.
For `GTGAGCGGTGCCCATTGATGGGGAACACATTCACTCACCATTCACTTACTGACTCACCTAGAGCAACTTTCAGTCCTGCAAGCTCCATTCATGGTAAATGCCCTGTACAGGTGTACCATAGATTACTTTTTATACCTTTTTTTTTTTTTTTTTTTGAGATGGAGTCTTGCTCTTGTCACCCAGTCTGGAGTGCAATGGTACAATCTTGGCTCACTGCAATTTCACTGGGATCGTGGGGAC`, “normalised bound fraction” read -0.0339 ratio.
`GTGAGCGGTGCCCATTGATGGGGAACTAATATACTATATGGAATAATGACTTTCTATATCCGTAATCAATATTTACTTTGAATATCAGTAGGTTGAGTTAGTAGTTTGATTCTGGTCCCTTGTTTACTCTGATGCAATCCCCTGTAAGAAGGACCTGACAAAGTGCCTGGTGAATGGGGTTCAGTACATGCCAGTACCTTTTCTTTCCCTGCTAATGCGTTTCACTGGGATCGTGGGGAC`: “normalised bound fraction” 0.439 ratio.
Under “normalised bound fraction”, `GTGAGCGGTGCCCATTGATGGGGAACGCTCTGGGCAGTCACCCAGGTACCACAAAATCCCTATGGGTGTGCATCTCCTTTGTTACCCATGTGTATACTCCCTCCCTGAGCTCAAAGCCATGTTTGCTCAGCTTGATGAAAATGTGTTTCTTGAAAGCCACATTCTTTTCCTTTTCTGAGCCAGTGAGGTTTCTGCAGAGCTCATGGTGCTGATGTTTCCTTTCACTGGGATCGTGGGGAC` is recorded as 0.166 ratio.
`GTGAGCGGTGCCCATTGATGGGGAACAATTTAGCCTAAGTCTGCCTCCTTACATATTAATATTTTAAGTTTGGCCTAAAGGTTTCCCCTTACAAAGTAAACTGCAGCCTAACTAGCTGTGTAAACACACTATTCTTAACACCAATCACAGATTTTCAGCAAGTCACAGGAAGTCAGCTGTTAACAAACTTTAAATAAAGCAAACACCAAGCTGTAAGCATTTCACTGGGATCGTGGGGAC` — result for “normalised bound fraction”: 0.441 ratio.
Under “normalised bound fraction”, `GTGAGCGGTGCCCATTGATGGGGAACTTATGTACTTGGAGCAGTTATAGGCACAGTATTTTATTTCCAAGAAAGCAGTGTAGAGGGGCCAAGTAGCATATAGATGGTATATTTAAAAAGTAAACATGCAGTAAATACTTAGTACTCTCTGTACAGAATAAATGAAAATCCAACTCATTACAGATTAGAAAAATTATATGTGGATGGAAAGAACAGTTATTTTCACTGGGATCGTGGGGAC` is recorded as 0.361 ratio.
